Measurements pooled from the literature.
Parts stem from different laboratories: compare values within a part only. “And” joins repeats or separate records; there may be more than shown.
Chain of UniProt P46734 (whole entry, looked up): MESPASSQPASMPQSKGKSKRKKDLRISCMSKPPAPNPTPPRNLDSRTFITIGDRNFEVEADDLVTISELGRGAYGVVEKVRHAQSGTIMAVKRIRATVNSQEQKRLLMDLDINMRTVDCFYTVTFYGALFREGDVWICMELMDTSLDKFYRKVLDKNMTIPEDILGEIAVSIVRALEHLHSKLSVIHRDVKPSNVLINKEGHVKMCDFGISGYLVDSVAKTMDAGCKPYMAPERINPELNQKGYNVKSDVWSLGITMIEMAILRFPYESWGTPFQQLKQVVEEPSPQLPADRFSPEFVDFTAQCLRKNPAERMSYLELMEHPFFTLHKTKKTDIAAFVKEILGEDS
Chain of UniProt P45985 (whole entry, looked up): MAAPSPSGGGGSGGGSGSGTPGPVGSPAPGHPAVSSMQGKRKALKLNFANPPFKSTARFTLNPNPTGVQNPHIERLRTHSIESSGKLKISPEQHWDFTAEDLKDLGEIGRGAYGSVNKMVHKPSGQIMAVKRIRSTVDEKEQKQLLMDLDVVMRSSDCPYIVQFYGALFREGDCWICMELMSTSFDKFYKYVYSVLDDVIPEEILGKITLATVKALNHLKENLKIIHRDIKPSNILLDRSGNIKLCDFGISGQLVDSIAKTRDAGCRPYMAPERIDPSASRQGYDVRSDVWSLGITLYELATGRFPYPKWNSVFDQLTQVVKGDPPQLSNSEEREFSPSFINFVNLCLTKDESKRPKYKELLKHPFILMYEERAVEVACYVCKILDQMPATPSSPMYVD
Chain of UniProt Q14680 (whole entry, looked up): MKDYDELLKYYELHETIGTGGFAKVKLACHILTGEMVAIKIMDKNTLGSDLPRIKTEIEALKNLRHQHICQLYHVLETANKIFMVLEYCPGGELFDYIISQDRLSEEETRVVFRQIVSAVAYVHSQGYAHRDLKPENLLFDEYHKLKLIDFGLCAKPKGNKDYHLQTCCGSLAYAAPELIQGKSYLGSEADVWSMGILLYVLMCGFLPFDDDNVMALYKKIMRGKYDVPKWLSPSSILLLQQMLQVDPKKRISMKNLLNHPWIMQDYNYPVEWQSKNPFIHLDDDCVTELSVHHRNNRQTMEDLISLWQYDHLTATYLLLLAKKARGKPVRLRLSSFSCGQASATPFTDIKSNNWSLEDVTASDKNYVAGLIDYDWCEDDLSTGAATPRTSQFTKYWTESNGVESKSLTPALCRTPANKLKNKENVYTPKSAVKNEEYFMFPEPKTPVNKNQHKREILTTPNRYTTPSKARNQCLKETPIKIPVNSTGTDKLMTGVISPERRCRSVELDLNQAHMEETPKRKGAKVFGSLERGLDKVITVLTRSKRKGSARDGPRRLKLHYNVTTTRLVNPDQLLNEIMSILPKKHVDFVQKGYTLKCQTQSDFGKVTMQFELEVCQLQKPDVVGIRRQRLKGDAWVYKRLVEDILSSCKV

Block 1 — read-out: enzyme activity; action: inhibitor; concentration: 0.5 µM; baseline: control; quantity: remaining activity
Target: Serine/threonine-protein kinase PLK3 (PLK3, Homo sapiens, UniProt Q9H4B4)
Chain of UniProt Q9H4B4 (whole entry, looked up): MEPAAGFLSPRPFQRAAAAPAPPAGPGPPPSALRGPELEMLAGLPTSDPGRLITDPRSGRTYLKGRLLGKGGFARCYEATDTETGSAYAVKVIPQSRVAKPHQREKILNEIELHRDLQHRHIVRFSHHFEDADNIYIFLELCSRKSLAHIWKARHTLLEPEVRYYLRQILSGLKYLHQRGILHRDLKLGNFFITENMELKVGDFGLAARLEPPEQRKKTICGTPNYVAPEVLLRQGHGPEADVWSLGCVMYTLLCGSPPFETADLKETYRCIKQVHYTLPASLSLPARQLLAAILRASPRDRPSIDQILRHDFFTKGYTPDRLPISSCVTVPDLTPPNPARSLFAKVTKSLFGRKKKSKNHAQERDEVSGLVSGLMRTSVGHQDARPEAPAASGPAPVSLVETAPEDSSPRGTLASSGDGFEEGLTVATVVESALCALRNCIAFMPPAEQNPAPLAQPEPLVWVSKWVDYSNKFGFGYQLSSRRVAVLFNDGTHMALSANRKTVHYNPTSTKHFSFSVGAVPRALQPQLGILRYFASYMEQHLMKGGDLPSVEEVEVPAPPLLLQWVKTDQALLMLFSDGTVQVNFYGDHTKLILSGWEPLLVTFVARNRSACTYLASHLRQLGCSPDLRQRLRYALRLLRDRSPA
Structure (SMILES) = COc1ccc(OC)c2c(=S)c3ccccc3[nH]c12; result = 99.8%
Structure (SMILES) = CN(C)c1ccc(C=C2C(=O)Nc3ccccc32)cc1; result = 97%
Structure (SMILES) = Cn1c2ccccc2c2c3c(c4c5ccccc5n(CCC#N)c4c21)CNC3=O; result = 88.1%
Structure (SMILES) = O=C(O)c1ccc2c3c1cccc3c(=O)n1c3ccccc3nc21; result = 93.9%
Structure (SMILES) = O=c1c2ccccc2[nH]c(=S)n1CCN1CCC(=C(c2ccc(F)cc2)c2ccc(F)cc2)CC1; result = 96.2%
Structure (SMILES) = CC(C)[C@H](CO)Nc1nc(Nc2cc(N)cc(Cl)c2)c2ncn(C(C)C)c2n1; result = 62.8%
Structure (SMILES) = Oc1ccc(-c2nc(-c3ccncc3)c(-c3ccc(F)cc3)[nH]2)cc1; result = 96.2%
Structure (SMILES) = Nc1ccc2ncnc(NCCc3ccc(Oc4ccccc4)cc3)c2c1; result = 98.7%
Structure (SMILES) = OCC(O)CCON=C1C(c2c(O)[nH]c3ccccc23)=Nc2ccccc21 (stereo not drawn); result = 102%
Structure (SMILES) = COc1cc2ncnc(Nc3ccc(F)c(Cl)c3)c2cc1OCCCN1CCOCC1; result = 103%
Structure (SMILES) = COc1cc2nccc(Oc3ccc(NC(=S)NC(=O)c4ccccc4C)cc3)c2cc1OC; result = 92.1%
Structure (SMILES) = O=C(Nc1cccc(Nc2cc(Nc3cccc(C(F)(F)F)c3)ncn2)c1)C1CC1; result = 99.1%
Structure (SMILES) = Nc1[nH]nc2nc3ccccc3nc12; result = 96.3%
Structure (SMILES) = Cc1nc(-c2ccccc2)c(-c2ccncc2)o1; result = 95.4%
Structure (SMILES) = N#CC(C#N)=C(N)/C(C#N)=C/c1ccc(O)cc1; result = 63.6%

Block 2 — read-out: enzyme activity; action: inhibitor; concentration: 77 µM; baseline: untreated; quantity: remaining activity
Target: DNA polymerase theta, ATPase domain (POLQ, Homo sapiens, UniProt O75417)
Chain of UniProt O75417 (whole entry, unmodified, looked up): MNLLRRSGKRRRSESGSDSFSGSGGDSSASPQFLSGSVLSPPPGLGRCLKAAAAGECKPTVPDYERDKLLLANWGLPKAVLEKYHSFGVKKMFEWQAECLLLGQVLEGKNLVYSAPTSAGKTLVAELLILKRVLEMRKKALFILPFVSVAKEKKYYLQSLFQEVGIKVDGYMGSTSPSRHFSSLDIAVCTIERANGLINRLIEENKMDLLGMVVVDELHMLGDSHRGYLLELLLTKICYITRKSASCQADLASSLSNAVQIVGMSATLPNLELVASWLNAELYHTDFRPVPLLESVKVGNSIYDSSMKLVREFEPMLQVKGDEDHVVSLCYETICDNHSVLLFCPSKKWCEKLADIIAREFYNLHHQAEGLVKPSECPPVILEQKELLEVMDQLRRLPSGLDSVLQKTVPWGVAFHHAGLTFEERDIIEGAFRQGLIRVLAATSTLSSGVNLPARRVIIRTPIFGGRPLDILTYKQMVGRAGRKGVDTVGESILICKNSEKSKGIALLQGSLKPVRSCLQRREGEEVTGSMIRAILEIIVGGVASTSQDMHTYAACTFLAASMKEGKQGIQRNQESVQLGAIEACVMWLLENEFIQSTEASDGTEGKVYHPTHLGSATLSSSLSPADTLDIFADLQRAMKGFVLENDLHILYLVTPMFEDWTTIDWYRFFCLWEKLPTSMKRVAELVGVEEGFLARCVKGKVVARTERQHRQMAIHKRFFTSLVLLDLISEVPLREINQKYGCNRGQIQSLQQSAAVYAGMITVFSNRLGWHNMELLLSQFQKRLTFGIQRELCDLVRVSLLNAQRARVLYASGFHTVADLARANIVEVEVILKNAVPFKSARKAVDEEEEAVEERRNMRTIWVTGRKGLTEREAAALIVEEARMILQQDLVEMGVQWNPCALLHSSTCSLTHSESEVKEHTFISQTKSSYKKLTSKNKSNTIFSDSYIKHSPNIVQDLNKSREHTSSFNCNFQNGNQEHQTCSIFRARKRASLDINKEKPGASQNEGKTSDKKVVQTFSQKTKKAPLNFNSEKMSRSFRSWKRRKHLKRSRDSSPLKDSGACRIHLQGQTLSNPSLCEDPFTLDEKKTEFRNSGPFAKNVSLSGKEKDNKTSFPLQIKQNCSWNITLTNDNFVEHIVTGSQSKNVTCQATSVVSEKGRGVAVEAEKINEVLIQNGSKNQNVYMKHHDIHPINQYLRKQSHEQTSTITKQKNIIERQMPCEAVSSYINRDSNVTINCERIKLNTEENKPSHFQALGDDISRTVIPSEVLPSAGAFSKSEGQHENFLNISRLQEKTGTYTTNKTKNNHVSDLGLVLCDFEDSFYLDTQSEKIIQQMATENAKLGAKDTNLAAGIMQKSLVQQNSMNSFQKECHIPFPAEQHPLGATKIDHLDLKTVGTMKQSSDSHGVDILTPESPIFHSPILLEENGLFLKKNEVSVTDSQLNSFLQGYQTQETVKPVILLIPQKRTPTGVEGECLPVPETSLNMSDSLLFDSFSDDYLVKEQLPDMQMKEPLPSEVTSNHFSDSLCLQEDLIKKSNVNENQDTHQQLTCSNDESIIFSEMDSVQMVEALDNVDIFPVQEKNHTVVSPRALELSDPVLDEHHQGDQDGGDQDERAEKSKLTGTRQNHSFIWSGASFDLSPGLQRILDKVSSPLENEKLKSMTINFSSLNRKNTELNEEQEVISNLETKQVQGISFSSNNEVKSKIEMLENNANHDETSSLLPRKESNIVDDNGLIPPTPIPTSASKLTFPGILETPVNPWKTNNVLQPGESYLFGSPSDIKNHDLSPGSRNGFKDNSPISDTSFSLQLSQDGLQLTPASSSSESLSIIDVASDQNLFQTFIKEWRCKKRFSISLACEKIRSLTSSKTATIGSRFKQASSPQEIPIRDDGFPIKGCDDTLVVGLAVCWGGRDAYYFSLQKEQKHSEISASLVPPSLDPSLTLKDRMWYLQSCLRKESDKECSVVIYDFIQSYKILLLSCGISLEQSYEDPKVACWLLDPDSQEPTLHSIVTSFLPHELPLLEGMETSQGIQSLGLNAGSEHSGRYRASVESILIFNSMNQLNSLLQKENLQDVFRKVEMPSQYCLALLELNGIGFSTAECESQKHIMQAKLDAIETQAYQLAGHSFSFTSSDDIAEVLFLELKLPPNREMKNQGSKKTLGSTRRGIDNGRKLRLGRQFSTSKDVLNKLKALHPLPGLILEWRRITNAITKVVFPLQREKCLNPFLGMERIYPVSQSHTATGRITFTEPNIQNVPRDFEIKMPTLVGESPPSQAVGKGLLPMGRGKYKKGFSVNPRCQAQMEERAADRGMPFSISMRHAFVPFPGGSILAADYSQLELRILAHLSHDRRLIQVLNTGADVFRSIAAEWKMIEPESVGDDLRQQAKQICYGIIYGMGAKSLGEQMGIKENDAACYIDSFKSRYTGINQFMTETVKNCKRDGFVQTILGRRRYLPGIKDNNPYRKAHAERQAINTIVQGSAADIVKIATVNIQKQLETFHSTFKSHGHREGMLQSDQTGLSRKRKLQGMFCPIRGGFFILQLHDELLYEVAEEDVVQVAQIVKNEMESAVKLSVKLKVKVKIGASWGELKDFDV
SMILES = CN1C(C(=O)Nc2ccccn2)=C(O)c2sccc2S1(=O)=O; result = 102% and 85.8%
SMILES = COc1cc(Br)c(Nc2nc(-c3c(C)nc4ncccn34)cs2)c(Br)c1; result = 88.9%
SMILES = O=C1c2cccc(O)c2C(=O)c2c(O)cc(CO)cc21; result = 96.1%
SMILES = CNc1nc(-c2ccc3c(N)n[nH]c3c2)cc(N2C[C@@H](C(=O)NC3CCCCC3)CC[C@H]2C)n1; result = 94.3%
SMILES = CO[C@H]1C[C@@H]2CC[C@@H](C)[C@@](O)(O2)C(=O)C(=O)N2CCCC[C@H]2C(=O)O[C@H]([C@H](C)C[C@@H]2CC[C@@H](OP(C)(C)=O)[C@H](OC)C2)CC(=O)[C@H](C)/C=C(\C)[C@@H](O)[C@@H](OC)C(=O)[C@H](C)C[C@H](C)/C=C/C=C/C=C/1C; result = 92.9%

Block 3 — organism: Sarcocystis neurona; read-out: parasite growth; concentration: 10 µM; time: 96 h; setting: second screen; baseline: untreated; quantity: log2 fold change
SMILES = O=C(c1ccccc1)c1ccc2n1CCC2C(=O)O (stereo not drawn); result = 0.75
SMILES = C[C@H]1COc2c(C3(N)CC3)c(F)cc3c(=O)c(C(=O)O)cn1c23; result = 0.29
SMILES = NCC(=O)CCC(=O)O; result = 0.17
SMILES = CC(=O)[C@H]1CC[C@H]2[C@@H]3CCC4=CC(=O)CC[C@]4(C)[C@H]3CC[C@]12C; result = 0.15

Block 4 — read-out: cell-free assay; technique: competition with immobilised ligand; concentration: 1 µM; quantity: remaining binding
SMILES: O=C(O)[C@@H]1[C@@H](Cn2nnc3ccccc3c2=O)CC[C@H]1C(=O)c1ccc(OCCC2CCOCC2)cc1
target = Tyrosine-protein kinase ABL1, phosphorylated (ABL1, Homo sapiens, UniProt P00519, T315I); result = 100%
target = MAP2K3 (Homo sapiens, UniProt P46734); result = 92%
target = TEK (Homo sapiens, UniProt Q02763); result = 100%
target = MAP2K4 (Homo sapiens, UniProt P45985); result = 100%
target = MELK (Homo sapiens, UniProt Q14680); result = 85%
target = TYRO3 (Homo sapiens, UniProt Q06418); result = 100%
